Experimental data of several laboratories.
Parts stem from different laboratories: compare values within a part only.

Block 1 — method: RNA Bind-n-Seq; form: RNA; matrix: in vitro; tested at: 200 nM; setting: whole 134-nt RNA, ends assumed; together with: 150 mM LiCl; reference: input library; direction: higher = stronger binding; endpoint: log2 enrichment; each molecule: 7-deaza-guanosine replaces G
Target: Ras GTPase-activating protein-binding protein 1, full length (G3BP1, Homo sapiens, UniProt Q13283)
UniProt Q13283, sequence (whole entry, looked up): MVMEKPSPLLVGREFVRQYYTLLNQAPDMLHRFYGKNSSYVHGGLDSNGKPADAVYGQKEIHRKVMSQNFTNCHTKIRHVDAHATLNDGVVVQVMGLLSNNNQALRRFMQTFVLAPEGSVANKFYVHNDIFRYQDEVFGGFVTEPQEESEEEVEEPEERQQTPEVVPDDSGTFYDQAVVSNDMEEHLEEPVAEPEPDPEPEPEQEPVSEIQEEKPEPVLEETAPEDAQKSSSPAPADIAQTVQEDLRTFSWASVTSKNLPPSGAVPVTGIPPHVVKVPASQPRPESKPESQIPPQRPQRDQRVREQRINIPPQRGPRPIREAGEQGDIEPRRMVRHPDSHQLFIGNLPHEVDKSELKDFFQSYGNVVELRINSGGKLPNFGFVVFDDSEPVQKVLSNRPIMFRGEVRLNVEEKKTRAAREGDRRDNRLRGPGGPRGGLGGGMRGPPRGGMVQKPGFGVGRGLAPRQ
All sequences stand within: GGGAGUUCUACAGUCCGACGAUC … UGGAAUUCUCGGGUGUCAAGG
Strand = UGGCCCUGGUGGCAUGCGGGGAGGAAGAGGUGGCCUCAUGGAUCGUGGUGGUCCCGCUGGAAUGUUCAGAGGUGGCCGUGGUGGAGACAG; value = 0.401
Strand = UCGGACGCCGCCAACCUGCACGAGUUCCACGCGGACCUGCGCUCAUGCUUUGCACCCCAGCACAUGGCCAUGCUGUGUAGCCCCAUCCUC; value = 0.215
Strand = CACAGACAACACGCACCCACACAGACACAGAGGGAAGGGGUUGGGAUGGGGACAGGGUGCACAGCAUGGCGGGGUAGGACCCCAGCCCCU; value = 0.154
Strand = GCAGGAAGUAAAAACAAAUGGAAAUGCUUCGGAUAGUGGCAGGGGUGGGAAAUGCUAAGGAAAGGGUGGGAUGGGAGUGGGUAAAGAGUU; value = 0.111
Strand = CACAGACAACACUCACCCACACAGACACAGAGGGAAGGGGUUGGGAUGGGGACAGGGUGCACAGCAGGGCGGGGUAGGACCCCAGCCCCU; value = -0.146
Strand = ACCAUGCAGGUGGGCAUCUUUGGGAAGUGGGGCAAGGGGGGGAUAGGGAGGGGGGUAACACUUUGGGAACCGGUGGUCCCAGGUCGUUUC; value = 0.106
Strand = ACCAUGCAGGUGGGCAUCUUUGGGAAGUGGGGCAAGGGGGGGAUAGGGAGGGGGGUAACACUUUGGGAACAGGUGGUCCCGGGUCGUUUC; value = 0.12
Strand = AAGUCCUGUGCUACACAUCGUAUGUACCGAAUCGGGGAAAAAGGGGAGGGGAGGGGAAAGUAUUAUGUUACGCCGUUCGGAUCUGCACUU; value = 0.548
Strand = UUUCAGGGGAGCUCUUUGCUCAGGCCCCGGUGGAUCAGUUUCCUGGCACAGCUGUGGAGAGUGUGACGGAUUCCAGCAGGUACUUCGUGA; value = -0.346
Strand = GCAGGAAGUAAAAACAAAUGGAAAUGCUUCGAAUAGUGGCAGGGGUGGGGGUUGCUAAGGAAAGGGUGGGAUGGGAGUGGGUAAAGAGUU; value = 0.0969
Strand = AGUCCUGUGCUACACAUCGUAUGUACCGAAUCGGGAGGGUUUUUUUGGGAAAAAGGGAAAGUAUUAUGUUACGCCGUUCGGAUCUGCACU; value = -0.578

Block 2 — method: RNA Bind-n-Seq; form: RNA; matrix: in vitro; tested at: not given; setting: RNA with constant flanks, ends assumed; reference: input RNA pool; direction: higher = stronger binding; endpoint: bound/input enrichment
Target: RING finger protein unkempt homolog, zinc fingers 1-6, GST-SBP tag (UNK, Homo sapiens, UniProt Q9C0B0, residues 30-357)
All sequences stand within: GGGAGUUCUACAGUCCGACGAUC … CAACAGAGGAUUGAGCAUCA
Residues (chain): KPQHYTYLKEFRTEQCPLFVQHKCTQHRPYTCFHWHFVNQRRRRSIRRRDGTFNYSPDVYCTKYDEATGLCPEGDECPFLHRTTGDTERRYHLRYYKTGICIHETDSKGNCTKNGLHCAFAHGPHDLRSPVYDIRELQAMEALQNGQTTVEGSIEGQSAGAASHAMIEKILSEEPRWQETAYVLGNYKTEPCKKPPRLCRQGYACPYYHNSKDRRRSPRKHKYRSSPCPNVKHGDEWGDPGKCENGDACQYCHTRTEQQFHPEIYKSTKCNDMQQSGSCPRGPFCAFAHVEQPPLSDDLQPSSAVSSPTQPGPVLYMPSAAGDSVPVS
Strand = UACAUUUACAAAGCCAUUUUACAUGCAUUAAAAGAGGGCUACAAUGUGUUUUACAAAUACCCGCACUUUUUUUUCCUGUUAUGUACCUAGUGUUAGAGGGUCAGAAUAAUCUUUCUGCUU; value = 0.224 ratio
Strand = UUCCCAAAGGCCUGGGAGCUUUUUGAAAAGAAAGAAAAAAGUGUGUUGGCUUUUUUUUUUUUCCGAAAGUUAGAAUUGUUUUUACCAAGAGUCUAUGUGGGGCUUGAUUCACCCUUCAUC; value = 0.676 ratio
Strand = GUUCGGCUCUGGGAUCAUGCCACAAUGACAGAAGUGAAAUCUCUGAAUUUUAAUAUGUCUGUCCGCAGCAUGGAGUAUAUUCCUGAAGGAGAGAUUUUGGUUAUUACUUAUGGACGAUCU; value = 0.195 ratio
Strand = AUAAAAGCCAUGUUGAGUGGCCCAGGUCAGUUUGCUGAGAACGAAACCAAUGAGGUCAAUUUCCGAGAGAUACCUUCACAUGUGCUAUCGAAAGUAUGCAUGUAUUUUACGUACAAGGUU; value = 0.0439 ratio
Strand = UGGUUUAAAGCCCUGAGGAUAGUAGUCACUUUAUUGGCCACUUUUUCAUUUAUAAUCACUUCCGCCGUUAAAAGUAGUUUUCCAGAAAAAGGACAUAAGAGACCUGGUCAAGUAUAAAAA; value = 0.707 ratio
Strand = GAAAUGACACUGGCCCAGCUUUUUCUACAGUCAGAGGCUGCUUAUUGUUGUGUCAGUGAAUCCGGAGAACUUGGAAAGGUUCAGUUUCGUGACUUAAAUCCAGAUGUGAAUGUUUUCCAA; value = 0.11 ratio
Strand = GAUAAUCCUGUUUAAACUGGUGCUGUGUACAUGGGAUGUACUGAUACAGAACUUCUCUUCCCGGGAAAGCUAAUCAUUUGUCAAUGAUUUAAAAAUUAUUGUCACUACUGUUGAUUACUG; value = 0.2 ratio
Strand = AUUUUGUGCCAGUCACUCCUAGAAAAUCUAGACAAGCUUCCUGGAGAUUCACGAACAAGAACCGGAUUCAUGACCUUUGAUAGCACUAUUCAUUUCUACAAUUUACAAGAAGGAUUAUCA; value = 2.84 ratio
Strand = AGAGAUUUUAUUUGCAAGUUAAUCAAAUAUUGGACAUUUAGAUUUUUUCUACUUUCUGGCCCGUAUAAGUAAUGCUGCUAGAACAUUUAUGUAAUUUUUGUAUGUGGUCAUGGUUUCUUU; value = 6.79 ratio
Strand = UUGAAAGGUAAUGGGAGCCCAGUCAAUGGGAGUUCUCAGCAGGGAACCUCAAAUCCUUCCCCCGGUUCAACUAUUCCAAGUCUUCAGAAUUCAUUAAAUGGAUCUUCUGCUGGCAGAAAG; value = 0.21 ratio
Strand = GCUUACAAAGCUGCUAGUGACAUUGCGAUGACAGAACUUCCUCCAACGCACCCCAUUCGUUCCGGUCUUGCUCUCAACUUUUCCGUAUUCUACUAUGAAAUUCUUAAUUCCCCCGACCGU; value = 0.523 ratio

Block 3 — method: RNA Bind-n-Seq; form: RNA; matrix: in vitro; tested at: 365 nM; reference: no-protein control; direction: higher = stronger binding; endpoint: RBNS enrichment (R)
Target: RNA binding protein fox-1 homolog 2, RRM domain, GST-SBP tag (RBFOX2, Homo sapiens, UniProt O43251-10, residues 100-194)
Setting: natural RNA segment, single round, ends assumed
All sequences stand within: GGGAGUUCUACAGUCCGACGAUC … UGGAAUUCUCGGGUGCCAA
Residues (chain): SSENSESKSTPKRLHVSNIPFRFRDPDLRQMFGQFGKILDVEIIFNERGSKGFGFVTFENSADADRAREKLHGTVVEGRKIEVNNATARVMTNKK
Strand = GUGCAUGCCUGUAAUCCCAGGUACUCGGGAGGCCAAGGCAGGAGAAUCGCUUGAACCCAGGAGGUGAAGGUUACGCUAAGCCAAGAUCACGCCAUUGCACUGCAGCCUGG; value = 2.27
Strand = AAAAAAAAAAAAGAAAGAAAGAAAGAAAGAGAGAAAUUGAGGUGACCCUCCCUCAGCCUCCAGAGGACUGAGAUAUGUGUGUGCACCUCCCAUCUCGCUCAGCACAGGGU; value = 0.522
Strand = GGAGAGUCCUUCUAAACCUAUAUUCUGCUCCACCGCAACUCCCUCACCUAUCCUCAGGCUCACAGUGGAAAUGUCCAGGGACAGGGCUGUUAGAAUGAGCUAAGGGAGAC; value = 0.423
Strand = UCUCGUUCAAGGUCCAGAUCAAGUUCCAGAGAUAACCCUGACCUCGACGUUCUUUGCACACUAUAACAGAACACUUUCCUACUUGCUUAGGCAGUUACUCUUCCGAGUUU; value = 0.501
Strand = GACAGUCACCCUCCCUCUGCUGGGAUGAGGUCCAGGAGCCAACUAAAACAAUGGCAGAGGAGACAUCUCUGGUGUUCCCACCACCCUAGAUGAAAAUCCACAGCACAGAC; value = 0.397
Strand = CGGAGGCUCGGCCGUGGGCCGGGAGGCAGUGCUGAUCCGGCUGCUCCUCCAGCCCUUCAGACGAGAUCCUGUUUCAGCUAAAUGCAGGGAAACUCAAUGUUUUUUUAAGU; value = 0.41
Strand = ACCAUGACUUGCCGGGUGGAGCGUUUCAUUGAGAUUGGCAGUGGCACUUCCAAAAAGCUGGCAAAGCGUAACGCAGCAGCUAAGAUGCUCCUUCGAGUGCACACUGUACC; value = 0.407
Strand = UCUCUGCCCUAGAGGUGCUACCUGUGACAGGGACCAAGUGCAUGUGUGUUCAGUGUUUGACUCCAAAACAGCUGCCUGCUCCCUCAGUGUGCUCGGUGGGGAGAGGGCCG; value = 3.41
Strand = AGUUUUUAGACCCCAGAGGGAGAUGAGCUUUUCCAAGCUGUGUCUGGGCCAGAGCCUCUCCUUGCCCUUGCUCCAUCCCGACGGUCACCGUUGGGUCCACGCCUCCACCG; value = 0.336
Strand = AGCAAGAGAGUGCACCCGUUUAGCCCUGGACCCUGUUUCUUACUGUGUGACUUGGCUAGAGUUGGGAGUUCCCCCAAAAUAAACGUGUCCCCAUUUUACCAGAACCAAAC; value = 0.366
Strand = GGGGUUUUUGUUUGAUUGAUUGUUUGUUUUUGGUAACUUUACAUCAAAUACACAUUUUAUGCUAGAAAAAGUGUACUUAAUAGGAAUUAUUUUUGUUUUCCUAAAGAAAA; value = 9.09
Strand = CGUCUUGUAACUAACUUUUGAAUUUUGCCUGACAUGAUUCUCUCUUGAUGAAGAAAUGACAUAUAUUAUCUUUGAAUAUCUACAAGGAAAGUUACCAACUUAUGUAGGGG; value = 0.451

Block 4 — method: universal PBM; form: double-stranded DNA, one strand shown; matrix: in vitro; tested at: 600 nM; direction: higher = stronger binding; endpoint: E-score
Target: Sal-like protein 4, full length isoform A (SALL4, Homo sapiens, UniProt Q9UJQ4, residues 1-1053)
UniProt Q9UJQ4, sequence (whole entry, looked up): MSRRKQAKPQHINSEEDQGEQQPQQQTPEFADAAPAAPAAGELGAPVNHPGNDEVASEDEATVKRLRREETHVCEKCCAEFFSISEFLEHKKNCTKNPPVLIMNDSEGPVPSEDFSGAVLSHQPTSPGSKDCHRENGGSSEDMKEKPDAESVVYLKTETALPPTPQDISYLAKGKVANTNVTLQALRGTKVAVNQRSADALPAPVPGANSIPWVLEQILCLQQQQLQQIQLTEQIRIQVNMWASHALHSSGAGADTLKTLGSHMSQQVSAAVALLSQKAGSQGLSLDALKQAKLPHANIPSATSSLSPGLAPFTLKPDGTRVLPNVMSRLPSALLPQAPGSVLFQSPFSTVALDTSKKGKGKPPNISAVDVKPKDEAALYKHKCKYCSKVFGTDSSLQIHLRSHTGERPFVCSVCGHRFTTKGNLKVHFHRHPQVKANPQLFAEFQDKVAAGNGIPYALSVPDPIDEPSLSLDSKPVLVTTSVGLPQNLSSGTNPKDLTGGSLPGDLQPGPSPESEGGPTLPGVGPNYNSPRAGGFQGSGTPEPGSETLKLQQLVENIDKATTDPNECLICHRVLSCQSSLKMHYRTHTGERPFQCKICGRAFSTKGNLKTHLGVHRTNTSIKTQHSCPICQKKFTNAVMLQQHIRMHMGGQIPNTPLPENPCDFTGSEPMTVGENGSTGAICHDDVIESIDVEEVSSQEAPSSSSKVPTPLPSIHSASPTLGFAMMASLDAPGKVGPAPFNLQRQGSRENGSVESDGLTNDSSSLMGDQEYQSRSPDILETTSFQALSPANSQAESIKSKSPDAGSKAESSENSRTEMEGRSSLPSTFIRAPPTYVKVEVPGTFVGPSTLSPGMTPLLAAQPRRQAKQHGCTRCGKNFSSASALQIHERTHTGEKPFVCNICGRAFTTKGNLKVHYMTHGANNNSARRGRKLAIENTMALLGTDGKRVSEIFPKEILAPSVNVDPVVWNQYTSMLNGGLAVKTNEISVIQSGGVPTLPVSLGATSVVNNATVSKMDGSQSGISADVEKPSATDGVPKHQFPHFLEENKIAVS
Setting: 8-mer, flanks averaged, mean of replicates
Strand = ATTTGATA; value = 0.324
Strand = CTGCCGCA; value = -0.205
Strand = CGGAGATA; value = 0.0531
Strand = GACGCGAC; value = -0.245
Strand = CCTGACCG; value = -0.214
Strand = ACGGCCGT; value = -0.309
Strand = ACCCAGAT; value = -0.09
Strand = CACAGTAG; value = 0.124
Strand = CAACGCAC; value = -0.157
Strand = TCAGAGCA; value = -0.145
Strand = GATCCTCA; value = -0.00172
Strand = GGGATCCC; value = -0.336
Strand = AGCCCCCA; value = -0.325
Strand = CTAATGTC; value = 0.00125
Strand = CCGCGAGG; value = -0.347
Strand = AAATTAGG; value = 0.197
Strand = GGTTACCA; value = -0.059
Strand = AGTCCTTC; value = -0.209
Strand = GGAGTATA; value = 0.0978
Strand = AACTGCGC; value = -0.125
Strand = TCCCTGCA; value = -0.188
Strand = AAAACCCT; value = 0.138
Strand = ACAGTTAG; value = -0.078
Strand = ACTAGGCT; value = -0.0199
Strand = CCACGCGG; value = -0.407
